Measurements gathered from unrelated publications.
Parts stem from different laboratories: compare values within a part only. Changes are numbered by the printed parent chain.

Sample 1
Target: RNA binding protein fox-1 homolog 2, RRM domain, GST-SBP tag (RBFOX2, Homo sapiens, UniProt O43251-10, residues 100-194)
Technique: RNA Bind-n-Seq
Molecule type: RNA
Medium: in vitro
Tested at: 365 nM
Notes: natural RNA segment, single round, ends assumed
Reference: no-protein control
Reading: higher = stronger binding
All sequences stand within: GGGAGUUCUACAGUCCGACGAUC … UGGAAUUCUCGGGUGCCAA
Construct (chain): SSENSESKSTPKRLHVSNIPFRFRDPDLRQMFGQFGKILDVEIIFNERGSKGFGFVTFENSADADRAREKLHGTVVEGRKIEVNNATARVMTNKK
| Oligonucleotide | RBNS enrichment (R) |
| --- | --- |
| GUAAGUUUUGAGAAAUACGAGUCUGUCAGAGCGGCCAUAAGCCAUAAAGAGUCAAUCUCUUAAUUAUAUUUUUCAUCAUGUAAACAAGUUUCCCAUUUCCCUUUCUUAGA | 1.32 |
| CCACCCCCUUUACCUCCCUUCCCAGAACUGAUACACGGGUGUUAUUAUUCAGGAAAAAAACUGAGCAGCUCUGGCCAGCAGCAAGGUUUCUUCUCUACUGCCCCAACUAU | 0.877 |
| CUGGACGAUUCUGCUCCUCAGCUCCAAAGAAUCCUGGGGUCAACGUCCCAGGCCAGCCGCAUGGGACAUAUGUACAUAGGUCUUCGCAAUGUUCUCUUGUUACUGGUGCC | 0.403 |
| GGUGGGUAGCCUCUACCAGCCAGGGCAGUCCCUGAGGGGCCAGCAGGGGGGCUGACUGCCUAGUGGCUCAACCUCCUGAACCCACCCACUCCCAGCGAUGCUACCCAGAA | 0.312 |
| CUAUAAUGUACAGUUAUUACAGGGCUUCUGAAGAAGGGGGGGCGGGGAGAAGCUUCUCUGAGGGGCUCGCUCUGCUUUUCCUUCACGGUUUUAUUUUUGAUUGUUUUUUC | 0.378 |
| AUGAGGCUGUGGUGUCAGGUUUAGGCCUCUCUCAAGUCAGAAAACCCCGGGCUGAGACCUCCACAGACAAGGGCUCCCCAUGCUGGCCAUUGGCAGGGGCCCAAGAAGUU | 0.228 |
| AAGAAUGGACUUAAGAAGUACUGCUGGGCAAGUGUGCUGAAAGUACAUUAACUGCUCAAAUACAAGGAAGUGGCCCAAUGAACAUGGUUGUGGGAGGGGAAAGGAGAAAC | 0.793 |
| CUCCCUUAAAAUCUGGUCUGCUUAAUUUCAAUUUUUGUAUCCAUUCUAAUGAUGCAACAUAGCACAGAAUUACUGUGAUCAGUUUCUCAUCCAUACUGGGAAUUGUCUUG | 0.943 |
| UUCAUCUGGGUGGUCCAGAUAGUAAAGCGCUUUUAUUUCUGGAGCUGGGGAAGCAGAUGACUCUUCCACUGGGGCGGAAGGGGCACCCACUGUGUCCCGAAGGGGCAGUC | 0.525 |
| CCCCAUUCUGAAAGUCUGGCUUAGCGGGCAACACAGAGCCCUCAGCAUCCCAAACAUUGCCAGGAGGCUUCCCUGGACCCCAGCGAGACCCUGGCCUCUCUUGUCUGCAC | 1.56 |
| AUAAAGACUUUCAAUCAUUUCAUUUUCAGACAACUGAAAUUUUGUUUAGUAUGUGAAUUCUUUUUUUGAAAUGUAUAGUGAAUAGGAUGUUGCACUGGUGGCAAUUCAUC | 0.554 |
| GUUUCUUUUGGAGUACAACAUGUAUGCCGUUUACAACACACACAUGGUAACGGGGAUCACAUGCUCCAUGGUGCGCACGAUCCUGUGGUGUGAAGAGCAGGUCUGCUUUA | 1.04 |

Sample 2
Target: Histone acetyltransferase KAT6A, both winged helices, GST fusion (KAT6A, Homo sapiens, UniProt Q92794, residues 1-181)
Technique: protein binding microarray
Molecule type: double-stranded DNA, one strand shown
Medium: in vitro
Tested at: not given
Notes: 8-mer, flanks averaged, mean of 2 arrays, mostly near background
Reference: not given
Reading: higher = stronger binding
Residues (chain): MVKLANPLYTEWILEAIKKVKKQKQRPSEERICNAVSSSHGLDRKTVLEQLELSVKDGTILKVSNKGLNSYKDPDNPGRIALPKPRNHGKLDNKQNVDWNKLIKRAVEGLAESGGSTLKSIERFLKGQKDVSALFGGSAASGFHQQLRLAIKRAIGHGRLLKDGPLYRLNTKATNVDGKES
| Oligonucleotide | E-score |
| --- | --- |
| ATACTTTC | -0.0398 |
| CCGTTAGG | 0.188 |
| AGCGGTGG | 0.154 |
| ATGCAAAT | -0.114 |
| AGTGGCTC | -0.105 |
| TCTGAGCA | -0.214 |
| ACCGCGGA | 0.318 |
| CGTGTGCC | 0.101 |
| AAATAGGT | -0.232 |
| AATCCGTC | 0.185 |
| ACACCCGA | 0.105 |
| ACACGCGA | 0.207 |
| AGCTGGAT | -0.236 |
| GGAGTGAA | -0.165 |
| CCCCGGAC | 0.0814 |
| ACTTAGGA | -0.206 |
| CGTCTAGC | 0.0476 |
| AGCGCTTG | 0.266 |
| AGACCGCG | 0.265 |
| GCCGAACA | 0.17 |
| GCTGTAAC | -0.0425 |

Sample 3
Target: RING finger protein unkempt homolog, zinc fingers 1-6, GST-SBP tag (UNK, Homo sapiens, UniProt Q9C0B0, residues 30-357)
Technique: RNA Bind-n-Seq
Molecule type: RNA
Medium: in vitro
Tested at: not given
Notes: RNA with constant flanks, ends assumed
Reference: input RNA pool
Reading: higher = stronger binding
All sequences stand within: GGGAGUUCUACAGUCCGACGAUC … CAACAGAGGAUUGAGCAUCA
Target sequence (chain): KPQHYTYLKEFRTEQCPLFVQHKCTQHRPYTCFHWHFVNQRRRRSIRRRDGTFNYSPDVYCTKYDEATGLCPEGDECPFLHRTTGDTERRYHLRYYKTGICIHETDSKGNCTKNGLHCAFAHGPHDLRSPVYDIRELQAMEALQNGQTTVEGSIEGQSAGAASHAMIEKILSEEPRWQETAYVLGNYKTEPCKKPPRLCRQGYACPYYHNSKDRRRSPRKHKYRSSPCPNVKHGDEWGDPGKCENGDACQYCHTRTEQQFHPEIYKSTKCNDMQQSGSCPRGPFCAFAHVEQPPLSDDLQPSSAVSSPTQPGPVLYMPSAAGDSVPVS
| Oligonucleotide | bound/input enrichment [ratio] |
| --- | --- |
| AAUAGCCUUCUAUUUUUAAUAGGAACCUAGAGAAUACUUAGGAUUAUCUAGAGUUGUUUCUUCCGAAUCUAGAACUAUUUAUUUGUAUUUAAACAAUGUCUAUGAUUUGUACCAAUUCUU | 15 |
| AACAGUUUUCAGAAGUUCUUAAGGCAAGAGUGAAUUUCUGUGGAUUUUACUGGUCCCAGCUUCCGGUUCUUUACGACACUAACAGGACUGCAUAGAGGCUUUUUCAGCAUUACUGUAUUG | 0.301 |
| CAGAUCCGAUGCCUCUGCCAGCGUGGGGCUGAGGUCACUGUGGUACCCUGGGACCAUGCACCCGACAGCCAAGAGUAUGAGGGUCUCUUCUUAAGUAAUGGGCCUGGUGACCCUGCCUCC | 0.106 |
| UGCAUGCUGCUGUUUGUGUUUGGCUUUGUUGGCGGGGCGGUGGUCAUUAAUUCUGCUAUCUCCGUAUCUCUCUCUGUUUUGCUGCUUGUGCACUUUUCUAUUUCUACCGGUGUGCCAGCU | 0.481 |
| UGCCGUUUGAUUUUACACAUAAAAAGCAGUCGGGUGGUGCCGGCCAGUUUGGAAAAGUAACCGGAGUGCUGGAGCCCUUGCCCCCAGAGGACUACACGAAGUUGGAGUUUUCUGAUGAGA | 0.153 |
| UUUGAGUCACAUAAGGAUGAAAUAUUCCAGGUUCAGUGGUCACCUCACAAUGAGACUAUUUCCGCUUCCAGUGGUACUGAUCGCAGACUGAAUGUCUGGGAUUUAAGUAAAAUUGGAGAG | 0.0924 |
| CACCGGUCCCCUCACAUCCCGUAUAAGUUGCUGCACCUGGUGUGGACCCACGCGAGGCACCCCGCAGGCUACGAGCAGCAGGACGCCCACGAGUUCCUCAUCGCGGCCCUGGACGUGCUC | 0.118 |

Sample 4
Target: CCND1, cyclin fold, Cln2 fusion (human)
Technique: yeast growth competition, sequencing
Medium: yeast
Notes: weak parent motif
Reference: not given
Reading: higher = stronger binding
Parent: CDKN1B docking peptide (human); PSACRNLFGPVDH
| Change | normalised enrichment score |
| --- | --- |
| C4G | -0.0439 |
| R5Y | 0.626 |
| H13G | 0.574 |
| A3T | 0.503 |
| N6A | 0.978 |
| N6Q | 1.52 |
| A3Q | 0.476 |
| P10E | 0.889 |
| C4H | -0.168 |
| A3E | 0.879 |
| H13W | 1.38 |
| S2P | 0.944 |
| F8C | 0.13 |
| C4E | 0.302 |
| G9R | -0.582 |
| G9E | 0.647 |
| N6R | 1.15 |
| S2E | 0.539 |
| R5V | 0.817 |
| P10T | 0.863 |

Sample 5
Target: Phosphate system positive regulatory protein PHO4, full length, GST-tagged (PHO4, Saccharomyces cerevisiae, UniProt P07270, residues 1-312)
Technique: competition protein-binding microarray
Molecule type: double-stranded DNA, one strand shown
Medium: in vitro
Tested at: 2 µM
Notes: whole 60-bp probe, lowest competitor level
Together with: Cbf1 competitor, 0.05 µM
Reading: higher = stronger binding
All sequences stand within: … GTCTTGATTCGCTTGACGCTGCTG
Target sequence (chain): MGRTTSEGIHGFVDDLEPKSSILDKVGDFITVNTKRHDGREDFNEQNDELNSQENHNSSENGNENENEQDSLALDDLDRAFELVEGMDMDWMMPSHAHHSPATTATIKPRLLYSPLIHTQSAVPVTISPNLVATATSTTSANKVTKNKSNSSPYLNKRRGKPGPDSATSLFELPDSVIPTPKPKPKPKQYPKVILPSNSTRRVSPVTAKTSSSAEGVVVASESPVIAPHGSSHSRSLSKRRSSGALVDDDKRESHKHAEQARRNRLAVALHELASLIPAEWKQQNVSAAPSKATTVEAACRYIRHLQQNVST
| Oligonucleotide | fluorescence intensity [a.u.] |
| --- | --- |
| AAAGTTATCAAGACCGACGTGTCCTCCTCGTCGTTC | 4650 |
| ATTATCAATTGCCATCACGTGCAAACCGAAGAAATG | 17400 |
| CATACCCAACCTTGCGTGGTGGGTGAAGATATTTGT | 6180 |
| CGTCCTAGTGATTGTATCGTGGGTGCCATGAGGAAG | 9030 |
| TACCAATCGATTTGTCACCTGCAAAAGGACCTGGAT | 3780 |
| CATACCCAACCTTGTCACTTAACTTAAGATATTTGT | 3710 |
| TTTCGGTTTTTATCGCACGTTTCTTTTTGGTGAGCG | 14100 |
| CGGGGTTAAGTTTGTTTAGTGGGTGGCTTGCAGCAG | 4320 |
| AAAGCGGTAATTTGATGGGTGGGTGCAGATATCTAT | 4750 |
| CGGGGTTAAGTTTTTCACGTGCGGTGCTTGCAGCAG | 14200 |
| TTGGTGTTTCAGGTATTCGTGCTAATCAACGTTACT | 6420 |
| TTAGAGAATGAAAAGCACGTGGGTACTTCGATTTTG | 18500 |
| CATTTATTCTCTACCCATGTGGTGCCTGCCAGATCC | 11000 |
| GAAGGAGTGCGGGACCCCGTGGGTACCGCATCCCTT | 9180 |
| TGCGCAACAACTTGCGTCGTGGGTGTATGTCTAGAA | 8450 |
| GAATTACAGTTGGATGACATGTTGAACTCAGAAAAA | 4920 |
| TTGTACATTTTCCATCACGTGCAAAATTTGTTTCAA | 15800 |
| GCAATAGACACCACAAACGTGCGGAAGAAACCGCAA | 11400 |
| AAATTACTAAGTTTTCACGTGTACTACCCCGTATGA | 13100 |
| CTAACGAAGGTTTTTCACGTGCCTTACAAGCCAAGT | 14500 |
| ATTTATCATTTAAATCACATGGACACCCACCGAACT | 8820 |
| CTTCTGTAAATTTGAAATGTGGGTGGACGCGCCCCG | 5360 |
| GAACAAGACAATCCACACGGGATTTTGACGCCCCTA | 5120 |
| TGCGCAACAACTTGACTCGTGGGTGTATGTCTAGAA | 11100 |
| GTCTTGTCTCATTGTAATGTGGGTGTCCCCACTTCA | 4820 |

Repeated from above (sample 4):
| Change | normalised enrichment score |
| --- | --- |
| H13G | 0.574 |
| C4G | -0.0439 |
| N6A | 0.978 |
| R5V | 0.817 |
